Experimental data collected from several papers.
± gives the spread as reported.
CDK2 with cyclin A2: Cyclin-dependent kinase 2, with cyclin A2 (CDK2, Homo sapiens, UniProt P24941)
AKR1C3: Aldo-keto reductase family 1 member C3 (AKR1C3, Homo sapiens, UniProt P42330)
UniProt P42330, sequence (whole entry, looked up): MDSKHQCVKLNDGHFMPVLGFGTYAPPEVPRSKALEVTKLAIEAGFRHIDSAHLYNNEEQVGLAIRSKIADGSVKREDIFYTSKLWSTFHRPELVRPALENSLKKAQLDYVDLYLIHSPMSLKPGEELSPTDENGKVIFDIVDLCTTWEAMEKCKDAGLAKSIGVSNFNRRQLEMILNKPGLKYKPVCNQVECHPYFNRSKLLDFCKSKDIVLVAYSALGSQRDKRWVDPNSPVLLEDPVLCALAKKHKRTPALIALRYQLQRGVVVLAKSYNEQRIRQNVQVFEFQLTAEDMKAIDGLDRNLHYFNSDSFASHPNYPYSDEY
Genome polyprotein NS2B-NS3 protease: Genome polyprotein, NS2B-NS3 protease (Dengue virus type 2, UniProt P14340)
DNMT3A catalytic domain: DNA (cytosine-5)-methyltransferase 3A, catalytic domain (DNMT3A, Homo sapiens, UniProt Q9Y6K1)
Ectonucleoside triphosphate diphosphohydrolase 2: Ectonucleoside triphosphate diphosphohydrolase 2 (Homo sapiens, UniProt Q9Y5L3)
UniProt Q9Y5L3, sequence (whole entry, looked up): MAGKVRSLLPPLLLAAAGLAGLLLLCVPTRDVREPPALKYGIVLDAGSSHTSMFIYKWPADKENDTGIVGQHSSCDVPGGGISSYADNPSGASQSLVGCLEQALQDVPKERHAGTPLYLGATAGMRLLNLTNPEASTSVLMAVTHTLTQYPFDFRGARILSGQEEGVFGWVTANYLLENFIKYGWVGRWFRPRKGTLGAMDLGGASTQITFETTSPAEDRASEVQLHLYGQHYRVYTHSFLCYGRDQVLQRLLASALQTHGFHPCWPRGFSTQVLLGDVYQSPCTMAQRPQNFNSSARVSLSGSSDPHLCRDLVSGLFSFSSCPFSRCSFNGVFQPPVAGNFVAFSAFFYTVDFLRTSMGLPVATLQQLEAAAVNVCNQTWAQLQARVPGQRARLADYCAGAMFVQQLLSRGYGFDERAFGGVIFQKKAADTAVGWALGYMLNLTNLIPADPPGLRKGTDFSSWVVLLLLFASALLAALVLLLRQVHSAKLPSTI
MAL12: Alpha-glucosidase MAL12 (MAL12, Saccharomyces cerevisiae S288c, UniProt P53341)
UniProt P53341, sequence (whole entry, looked up): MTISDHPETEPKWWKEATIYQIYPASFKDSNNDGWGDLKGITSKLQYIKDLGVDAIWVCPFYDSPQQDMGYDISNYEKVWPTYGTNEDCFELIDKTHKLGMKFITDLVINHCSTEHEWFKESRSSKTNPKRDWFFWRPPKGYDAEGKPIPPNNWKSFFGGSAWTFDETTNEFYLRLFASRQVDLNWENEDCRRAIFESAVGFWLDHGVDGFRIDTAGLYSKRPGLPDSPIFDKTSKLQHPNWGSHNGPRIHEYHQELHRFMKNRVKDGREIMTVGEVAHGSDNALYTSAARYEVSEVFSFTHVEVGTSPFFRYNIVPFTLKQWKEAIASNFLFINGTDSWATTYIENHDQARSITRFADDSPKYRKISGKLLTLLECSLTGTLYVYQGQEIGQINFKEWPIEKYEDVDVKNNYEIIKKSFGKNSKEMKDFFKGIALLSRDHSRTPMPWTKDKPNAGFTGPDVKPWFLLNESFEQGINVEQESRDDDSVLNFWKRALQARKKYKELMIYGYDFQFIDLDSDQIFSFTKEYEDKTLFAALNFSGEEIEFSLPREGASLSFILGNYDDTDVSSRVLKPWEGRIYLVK
Sialyltransferase ST3Gal-I: Sialyltransferase ST3Gal-I (Rattus norvegicus, UniProt Q6H8N0)
UniProt P28223, sequence (whole entry, looked up): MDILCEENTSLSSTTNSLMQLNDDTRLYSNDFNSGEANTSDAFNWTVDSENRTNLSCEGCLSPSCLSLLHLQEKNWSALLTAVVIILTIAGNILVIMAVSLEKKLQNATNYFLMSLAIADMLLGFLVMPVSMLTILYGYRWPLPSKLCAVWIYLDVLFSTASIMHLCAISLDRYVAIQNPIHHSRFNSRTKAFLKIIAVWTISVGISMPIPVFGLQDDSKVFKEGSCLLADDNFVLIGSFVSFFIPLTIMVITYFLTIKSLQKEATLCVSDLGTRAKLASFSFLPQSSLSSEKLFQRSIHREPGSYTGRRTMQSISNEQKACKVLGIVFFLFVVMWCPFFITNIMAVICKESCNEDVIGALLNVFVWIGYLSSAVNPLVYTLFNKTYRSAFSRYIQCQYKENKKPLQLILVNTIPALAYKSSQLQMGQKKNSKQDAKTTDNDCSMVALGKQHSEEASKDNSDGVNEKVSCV
UniProt P28482, sequence (whole entry, looked up): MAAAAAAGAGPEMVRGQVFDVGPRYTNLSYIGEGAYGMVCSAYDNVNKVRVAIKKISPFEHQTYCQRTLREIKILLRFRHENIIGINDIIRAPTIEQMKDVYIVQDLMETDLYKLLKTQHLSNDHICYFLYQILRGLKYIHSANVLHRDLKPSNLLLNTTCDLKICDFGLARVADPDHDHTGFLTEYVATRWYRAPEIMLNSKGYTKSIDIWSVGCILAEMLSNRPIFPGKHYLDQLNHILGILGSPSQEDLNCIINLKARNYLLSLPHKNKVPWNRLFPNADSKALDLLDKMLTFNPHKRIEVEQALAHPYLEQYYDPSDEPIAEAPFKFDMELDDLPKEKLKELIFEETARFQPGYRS
UniProt Q6GI75, sequence (whole entry, looked up): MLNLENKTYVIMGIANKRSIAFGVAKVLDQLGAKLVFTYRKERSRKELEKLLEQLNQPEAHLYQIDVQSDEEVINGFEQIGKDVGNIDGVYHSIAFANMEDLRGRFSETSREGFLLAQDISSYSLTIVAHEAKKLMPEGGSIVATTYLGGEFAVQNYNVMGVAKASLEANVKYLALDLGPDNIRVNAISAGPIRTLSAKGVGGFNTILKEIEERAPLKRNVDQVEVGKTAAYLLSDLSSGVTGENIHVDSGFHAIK
UniProt Q06830, sequence (whole entry, looked up): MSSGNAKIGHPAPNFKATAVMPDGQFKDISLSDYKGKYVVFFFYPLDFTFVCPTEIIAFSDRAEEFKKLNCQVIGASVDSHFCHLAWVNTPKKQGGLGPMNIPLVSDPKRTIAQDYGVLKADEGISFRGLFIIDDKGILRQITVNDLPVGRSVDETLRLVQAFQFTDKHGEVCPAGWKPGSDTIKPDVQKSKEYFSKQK
UniProt P46116, sequence (whole entry, looked up): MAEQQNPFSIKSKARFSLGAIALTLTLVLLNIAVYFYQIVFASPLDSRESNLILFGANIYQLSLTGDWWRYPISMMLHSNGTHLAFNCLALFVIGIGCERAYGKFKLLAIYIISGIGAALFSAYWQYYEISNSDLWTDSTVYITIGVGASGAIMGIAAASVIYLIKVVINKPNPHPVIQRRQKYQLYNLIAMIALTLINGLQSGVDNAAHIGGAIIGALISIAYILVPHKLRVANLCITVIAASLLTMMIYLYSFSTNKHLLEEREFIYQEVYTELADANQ
UniProt Q14191, sequence (500-946, looked up): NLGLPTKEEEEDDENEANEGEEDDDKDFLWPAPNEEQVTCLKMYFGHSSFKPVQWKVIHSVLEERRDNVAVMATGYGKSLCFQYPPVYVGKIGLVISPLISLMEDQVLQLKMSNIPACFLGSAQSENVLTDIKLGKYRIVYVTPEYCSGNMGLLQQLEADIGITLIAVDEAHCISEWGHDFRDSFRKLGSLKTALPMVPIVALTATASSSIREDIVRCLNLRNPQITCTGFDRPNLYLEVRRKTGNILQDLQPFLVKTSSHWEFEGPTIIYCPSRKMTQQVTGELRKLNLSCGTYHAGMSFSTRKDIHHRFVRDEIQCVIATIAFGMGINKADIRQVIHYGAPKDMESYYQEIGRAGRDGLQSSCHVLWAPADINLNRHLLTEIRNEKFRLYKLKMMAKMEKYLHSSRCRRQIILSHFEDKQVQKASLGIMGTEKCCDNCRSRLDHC
UniProt Q8N6T7, sequence (whole entry, looked up): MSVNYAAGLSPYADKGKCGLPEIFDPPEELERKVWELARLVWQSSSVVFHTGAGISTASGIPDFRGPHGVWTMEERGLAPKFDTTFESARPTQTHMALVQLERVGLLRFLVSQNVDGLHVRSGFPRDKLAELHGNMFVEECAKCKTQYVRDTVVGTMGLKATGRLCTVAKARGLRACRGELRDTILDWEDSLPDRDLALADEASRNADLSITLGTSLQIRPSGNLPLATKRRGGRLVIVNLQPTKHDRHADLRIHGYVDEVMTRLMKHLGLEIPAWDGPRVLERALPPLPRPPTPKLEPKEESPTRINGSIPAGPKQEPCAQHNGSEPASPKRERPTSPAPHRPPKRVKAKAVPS
UniProt P00760, sequence (whole entry, looked up): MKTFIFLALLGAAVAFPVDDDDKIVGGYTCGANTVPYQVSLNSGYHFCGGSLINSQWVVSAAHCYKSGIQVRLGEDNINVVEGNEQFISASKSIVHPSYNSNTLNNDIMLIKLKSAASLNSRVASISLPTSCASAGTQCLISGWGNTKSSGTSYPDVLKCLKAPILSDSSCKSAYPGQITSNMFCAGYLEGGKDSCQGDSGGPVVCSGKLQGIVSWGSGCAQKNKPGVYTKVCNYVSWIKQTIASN

CC(C)Cn1cc(-c2ccnc(Nc3ccc(OCCCCCCC(=O)NO)cc3)n2)nn1
inhibition (CDK2 with cyclin A2; enzyme activity, inhibitor, TR-FRET; 50 nM): 0.53%

NOCC(=O)O
inhibition (Cystathionine beta-synthase (CBS, Homo sapiens, UniProt P35520); enzyme activity, inhibitor; 10 µM): 49%

N[C@H]1CC[C@H](Nc2nccc(-c3cccnc3Oc3ccc(NS(=O)(=O)CC(F)(F)F)c(F)c3)n2)CC1
inhibition (Serine/threonine-protein kinase/endoribonuclease IRE1 (ERN1, Homo sapiens, UniProt O75460); RNase activity, inhibitor; concentration not given, at quantitative kinase inhibition, added: XBP1 mini-substrate): ~80%

C[C@]12CC[C@@H]3c4cc(Br)c(O)c(Br)c4CC[C@H]3[C@@H]1CCC2=O
inhibition (AKR1C3; enzyme activity, inhibitor, absorbance; 10 µM, pH 9): 50%

O=C(N[C@@H](CC1CCCCC1)C(=O)N[C@@H](C[C@H]1CCNC1=O)C(=O)C(=O)NC1CC1)OCc1cccc(Cl)c1
inhibition (Serine protease 1 (PRSS1, Bos taurus, UniProt P00760); enzyme activity, inhibitor; 125 µM, inhibitor/enzyme ratio 250): 0%

CC(C)CCC[C@@H](C)[C@H]1CCC([C@@H]2CC[C@H]3C[C@H](O)CC[C@]3(C)[C@@H]2O)[C@]1(C)CC(=O)O (some centres unmarked)
inhibition (Bile acid receptor (NR1H4, Homo sapiens, UniProt Q96RI1); reporter gene, antagonist, luciferase; HEK-293T; 10 µM): 100%

Cc1ccc(S(=O)(=O)c2c(-c3ccccc3)c3c(C)c4ccc(C)cc4n3c3ccccc23)cc1
inhibition (Epidermal growth factor receptor (EGFR, Homo sapiens, UniProt P00533); enzyme activity, inhibitor, ADP detection; 1 µM): > 50%

NC(=O)c1cn(CC(=O)NC[C@H](NC(=O)CCc2nc(-c3cccnc3)no2)C(=O)N2CCCCC2)c(=O)[nH]c1=O
inhibition (NAD-dependent protein deacylase sirtuin-6 (SIRT6, Homo sapiens, UniProt Q8N6T7); demyristoylation; 10 µM): 28%

Cc1nnc(-c2ccc(CNC(=O)CCCCCOc3cccc4c3C(=O)N(C3CCC(=O)NC3=O)C4=O)cc2)nn1 (centres unmarked)
inhibition (Mitogen-activated protein kinase 1 (MAPK1, Homo sapiens, UniProt P28482); enzyme activity, inhibitor; 30 µM): 46%

Oc1c(C(Nc2nccs2)c2cccc(OCc3ccccc3)c2)ccc2cccnc12 (centres unmarked)
inhibition (Genome polyprotein NS2B-NS3 protease; enzyme activity, inhibitor, fluorogenic; 25 µM, 0.1% CHAPS, added: Bz-Nle-Lys-Arg-Arg-AMC substrate): 92.9 ± 1.26%

Cc1cc(Nc2ccc(NC(=O)c3ccc(Nc4c5ccccc5nc5ccccc45)cc3)cc2)nc(N)n1
inhibition (DNMT3A catalytic domain; enzyme activity, inhibitor; 10 µM): 11%

CC[C@H](C)[C@H](NC(=O)[C@@H](NC(=O)[C@H](CCCCN)NC(=O)[C@@H](NC(=O)[C@@H]1CCCN1[C@@H]1CN(C(=O)[C@@H](NC(=O)[C@@H](NC(=O)[C@@H](NC(=O)[C@@H](NC(=O)[C@@H](NC(=O)[C@@H](N)CCCCN)C(C)C)C(C)C)C(C)C)[C@@H](C)CC)[C@@H](C)O)CC[C@H]1NS(=O)(=O)c1ccc(C)cc1)[C@@H](C)O)C(C)C)C(=O)N[C@@H](CC(C)C)C(=O)N[C@@H](Cc1c[nH]cn1)C(N)=O
inhibition (Microtubule-associated protein tau, 2N4R isoform (MAPT, Homo sapiens, UniProt P10636, del597-597); tau ΔK280 aggregation, thioflavin T fluorescence; concentration not given, compound to tau ratios 5/1 and 1/1): inhibited

COc1ccc2c(c1Cl)CC[C@@H]1[C@@H]2CC[C@@]2(C)C(=O)CC[C@@H]12
inhibition (AKR1C3; enzyme activity, inhibitor, absorbance; 10 µM, pH 9): 50%

O=C(O)c1cccc(S(=O)(=O)NC2CC2)c1
inhibition (Ectonucleoside triphosphate diphosphohydrolase 2; enzyme activity, inhibitor, absorbance; 100 µM): 10%

O=C(NCc1nc(-c2ccc(Br)cc2)c[nH]1)Nc1ncc(Sc2ccccn2)s1
inhibition (Enoyl-[acyl-carrier-protein] reductase [NADPH] FabI (Staphylococcus aureus, UniProt Q6GI75); enzyme activity, inhibitor, absorbance; 10 µM): 22.4%

O=C(CCCCCCN1CCN(c2ccc(Nc3ncc(F)c(-c4cn(C5CCCC5)nn4)n3)cc2)CC1)NO
inhibition (CDK2 with cyclin A2; enzyme activity, inhibitor, TR-FRET; 50 nM): -7.98%

NC(=O)c1ccc(C(=O)NOCc2ccc(Sc3cccc(Cl)c3)c(C(F)(F)F)c2)cc1
inhibition (Polyamine deacetylase HDAC10 (HDAC10, Homo sapiens, UniProt Q969S8); cell-free assay, inhibitor; 100 µM): 5.7%

COc1cc2c(cc1Br)[C@H]1CC[C@@]3(C)C(=O)CC[C@H]3[C@@H]1CC2
inhibition (AKR1C3; enzyme activity, inhibitor, absorbance; 100 µM, pH 9): 18.3%

C[C@H](CCC(=O)N[C@H](CC(c1c[nH]c2ccc([N+](=O)[O-])cc12)c1c[nH]c2ccc([N+](=O)[O-])cc12)C(=O)O)[C@H]1CC[C@H]2[C@@H]3CC[C@@H]4C[C@H](O)CC[C@]4(C)[C@H]3CC[C@]12C
inhibition (Beta-galactoside alpha-2,6-sialyltransferase 1 (ST6GAL1, Homo sapiens, UniProt P15907); enzyme activity, inhibitor, UPLC; 25 µM): 100%

COc1ccccc1-c1ccncc1C(=O)Nc1nnc(OCc2ccc(Cl)cc2)s1
inhibition (Bifunctional 3'-5' exonuclease/ATP-dependent helicase WRN, residues 500-946 (WRN, Homo sapiens, UniProt Q14191); ATPase activity, inhibitor, ADP-Glo; up to 30 µM): no inhibition

N[C@H]1CCCc2c1[nH]c1ccc(Cl)cc21
inhibition (5-hydroxytryptamine receptor 2A (HTR2A, Homo sapiens, UniProt P28223); radioligand binding, agonist radioligand displacement; 10 µM): 55.6 ± 1.7%

C=CC(C)(C)c1[nH]c2ccccc2c1C1=C(O)C(=O)C(c2c[nH]c3c(CC=C(C)C)cccc23)=C(O)C1=O
inhibition (Trypanothione synthetase (Leishmania infantum, UniProt A4I2Z3); trypanothione synthetase activity; 25 µM): 69.3 ± 3.5%

COc1ccc(NC(=S)Nc2cccc3[nH]ccc23)cc1
inhibition (Microtubule-associated protein tau, 2N3R isoform (MAPT, Homo sapiens, UniProt P10636); tau fibril formation, ThT fluorescence; 100 µM, tau at 10 µM): 70%

COc1cc(O)c2c(=O)c(OC)c(-c3ccc(O)c(O)c3)oc2c1
inhibition (MAL12; enzyme activity, inhibitor, absorbance; 10 µM): 5.9%

N#Cc1cnc2sc(C(=O)O)cc2c1N1CCc2[nH]nc(C(=O)N[C@@H](CC(=O)NCCOCCN3CCOCC3)c3cccc(Br)c3)c2C1
inhibition (Interleukin-1 receptor-like 2 (IL1RL2, Homo sapiens, UniProt Q9HB29); reporter gene; HEK-Blue IL-36R; up to 100 µM, added: IL-36β): no inhibition

C[C@H](CCC(c1c[nH]c2ccccc12)c1c[nH]c2ccccc12)[C@H]1CC[C@H]2[C@@H]3CC[C@@H]4C[C@H](O)CC[C@]4(C)[C@H]3CC[C@]12C
inhibition (Sialyltransferase ST3Gal-I; enzyme activity, inhibitor, UPLC; 500 µM): 100%

C[C@@]12CC[C@@H]3c4cc(Br)c(O)cc4CC[C@H]3[C@@H]1CCC2=O
inhibition (AKR1C3; enzyme activity, inhibitor, absorbance; 100 µM, pH 9): 23.8%

C=C1C(=O)C23CCC4C(C)(C)CCCC4(C)C2C(O)CC1C3 (single isomer, unassigned)
inhibition (Peroxiredoxin-1 (PRDX1, Homo sapiens, UniProt Q06830); peroxidase activity, inhibitor, Amplex Red; concentration not given): inhibited

O=[N+]([O-])c1cccc(S(=O)(=O)NC[C@@H](O)[C@@H]2CCc3cc(F)ccc3O2)c1
inhibition (Prostaglandin G/H synthase 2 (PTGS2, Ovis aries, UniProt P79208); enzyme activity, inhibitor, absorbance; 100 µM): 39.9%

C[C@@]12CC[C@@H]3c4ccc(O)c(Br)c4CC[C@H]3[C@@H]1CCC2=O
inhibition (AKR1C3; enzyme activity, inhibitor, absorbance; 100 µM, pH 9): 58.2%

Oc1c(C(Nc2nc3ccccc3s2)c2ccccc2OCc2ccccc2)ccc2cccnc12 (centres unmarked)
inhibition (Genome polyprotein NS2B-NS3 protease; enzyme activity, inhibitor, fluorogenic; 10 µM, 0.1% CHAPS, added: Bz-Nle-Lys-Arg-Arg-AMC substrate): 82.8 ± 1.06%

Cc1cccc(/C=C/C(=O)c2cnn(-c3ccccc3)c2C)c1
inhibition (MAL12; enzyme activity, inhibitor; 10 µM): 9.43%

C[C@H](CCC(=O)N[C@H](CC(c1c[nH]c2ccc(Cl)cc12)c1c[nH]c2ccc(Cl)cc12)C(=O)O)[C@H]1CC[C@H]2[C@@H]3CC[C@@H]4C[C@H](O)CC[C@]4(C)[C@H]3CC[C@]12C
inhibition (Sialyltransferase ST3Gal-I; enzyme activity, inhibitor, UPLC; 500 µM): 0%

COc1ccc([C@@]23Oc4cc(OC)cc(OC)c4[C@]2(O)[C@@H]2OC(=O)[C@@H]2C3c2ccccc2)cc1 (mixture of isomers)
inhibition (Retinoid-inducible serine carboxypeptidase (SCPEP1, Homo sapiens, UniProt Q9HB40); inhibitor, competitive ABPP-SILAC; PC-3 cell lysate; 1.0 µM): > 75%

C[C@H](CCC(=O)N[C@H](CC(c1c[nH]c2ccccc12)c1c[nH]c2ccccc12)C(=O)O)[C@H]1CC[C@H]2[C@@H]3CC[C@@H]4C[C@H](O)CC[C@]4(C)[C@H]3CC[C@]12C
inhibition (Sialyltransferase ST3Gal-I; enzyme activity, UPLC; 500 µM): 3%

O=C(CCCCCCOc1ccc(Nc2ncc(F)c(-c3cn(C4CCCCC4)nn3)n2)cc1)NO
inhibition (CDK2 with cyclin A2; enzyme activity, inhibitor, TR-FRET; 5 µM): -5.87%

COc1ccc2c(c1I)CC[C@@H]1[C@@H]2CC[C@@]2(C)C(=O)CC[C@@H]12
inhibition (AKR1C3; enzyme activity, inhibitor, absorbance; 100 µM, pH 9): 19.8%

CC(C)CC(NC(=O)CCn1nc(Cc2ccccc2)c2ccccc2c1=O)C(=O)NN (centres unmarked)
inhibition (Vascular endothelial growth factor receptor 2 (KDR, Homo sapiens, UniProt P35968); enzyme activity, inhibitor; 10 µM): 92.4%

C[C@]12CC[C@@H]3c4cc(Cl)c(O)cc4CC[C@H]3[C@@H]1CCC2=O
inhibition (AKR1C3; enzyme activity, inhibitor, absorbance; 100 µM, pH 9): 86.8%

Cc1cc(Nc2ccc(NC(=O)c3ccc(NC(=O)c4ccnc5ccccc45)cc3)cc2)nc(N)n1
inhibition (DNMT3A catalytic domain; enzyme activity, inhibitor; 10 µM): 29%

CC1C(=O)N(S(C)(=O)=O)C1c1ccccc1 (centres unmarked)
inhibition (Rhomboid protease AarA (Providencia stuartii, UniProt P46116); enzyme activity, inhibitor, fluorogenic peptide; concentration not given): inactive

COc1cc(C(=O)NC2CCC(N3CCN(CC4CCC5(CCCC5)C4)CC3)CC2)c(F)cc1Nc1ncc2c(n1)N(C1CCCC1(F)F)CC(F)(F)C(=O)N2C (centres unmarked)
inhibition (Cytoplasmic tyrosine-protein kinase BMX (BMX, Homo sapiens, UniProt P51813); cell-free assay, TR-FRET; 10 µM): 2.03%

O=C(c1cccc(S(=O)(=O)N2CCOCC2)c1)N1CCOCC1
inhibition (Ectonucleoside triphosphate diphosphohydrolase 2; enzyme activity, inhibitor, absorbance; 100 µM): 25%

C[C@]12CCC[C@H]1[C@@H]1CCc3c(cc(I)c(O)c3I)[C@H]1CC2
inhibition (AKR1C3; enzyme activity, inhibitor, absorbance; 100 µM, pH 9): 27.3%
